Experimental data collected from several papers.
Each line is one published result; not all experiments were run side by side. ± gives the spread as reported.

COc1ccc(C(=O)CCl)cc1 — viability (HMC3 GRN luciferase reporter clone; ATP-based; 11 µM, 72 h, 10% FBS): > 75%
COc1cc2c(cc1OC)C(=O)C(=Cc1ccc(N3CCN(C)CC3)cc1)C2 — viability (PC-12; cell viability, MTT; concentration not given, 48 h): no effect
COC(=O)[C@]1(C)CCC[C@]2(C)[C@H]3C[C@H]4C(C(C)C)=C[C@]3(CC[C@H]21)[C@H]1[C@@H]4[C@@H](OCC#CCN2CCCC2)CC[C@@H]1O — viability (BHK-21-hACE2; 20.0 µM, 48 (unit not given)): 114%
CC(=O)N[C@H](CCCNC(=N)N)C(=O)N[C@H](CCCCN)C(=O)N[C@H](Cc1ccc(O)cc1)C(=O)N[C@H](CS)C(N)=O — viability (MCF-10A; neutral red; up to 50 nM, 24 h; relative to: untreated): no effect
O=C(CN1CCN(c2cc3c(cc2F)c(=O)c(C(=O)O)cn3C2CC2)CC1)Nc1ccc(Cl)cc1 — viability (Hec50co GOF p53; MTS; 10 µM, 72 h): 101.1 ± 1%
N[C@H](CC[As](O)O)C(=O)O — viability (HCC1569; 10 µM, 72 (unit not given)): ~47%
C=C(C(=O)OC)[C@@H]1CC[C@@]2(C)CCC(=O)C(C)=C2C1 — viability (RBL-2H3; cell growth or viability, MTT; 100 µM): > 90%
CSCC[C@H](N)C(=O)N[C@@H](CCC(=O)O)C(=O)N[C@H](C(=O)NCC(=O)N[C@@H](Cc1c[nH]c2ccccc12)C(=O)N[C@@H](Cc1ccc(O)cc1)C(=O)N[C@@H](CCCNC(N)=O)C(=O)N[C@@H](CO)C(=O)N1CCC[C@H]1C(=O)N[C@@H](Cc1ccccc1)C(=O)N[C@@H](CO)C(=O)N[C@@H](CCCNC(N)=O)C(=O)N[C@H](C(=O)N[C@H](C(=O)N[C@@H](Cc1c[nH]cn1)C(=O)N[C@@H](CC(C)C)C(=O)N[C@@H](Cc1ccc(O)cc1)C(=O)N[C@@H](CCCNC(=N)N)C(=O)N[C@@H](CC(N)=O)C(=O)NCC(=O)N[C@@H](CCCCN)C(N)=O)C(C)C)C(C)C)C(C)C — viability (mouse bone marrow-derived dendritic cells; MTT; up to 3 µM; relative to: untreated): 70%
CC(C)C1=C[C@@]23CC[C@@H]4[C@](C)(CCC[C@@]4(C)C(=O)NCC#CCN4CCCNCC4)[C@H]2C[C@@H]1[C@H]1C(=O)OC(=O)[C@H]13 — viability (BHK-21-hACE2; 20.0 µM, 48 (unit not given)): 113%
CC[C@H](C)[C@H](NC(=O)[C@@H](NC(=O)[C@H](Cc1ccc(O)cc1)NC(=O)[C@@H]1CSSC[C@@H]2NC(=O)[C@@H]3CCCN3C(=O)[C@H](CC(N)=O)NC(=O)[C@H](Cc3ccccc3)NC(=O)[C@H](CCC(=O)O)NC(=O)[C@H](C(C)C)NC(=O)[C@H](CC(=O)O)NC(=O)[C@@H]3CSSC[C@H](NC(=O)[C@H]([C@@H](C)O)NC(=O)[C@H](CC(C)C)NC(=O)[C@@H]4CCCN4C(=O)[C@@H]4CCCN4C(=O)[C@H](CSSC[C@H](N)C(=O)N4CCC[C@H]4C(=O)NCC(=O)N[C@@H](CCC(=O)O)C(=O)NCC(=O)N[C@@H](CCC(=O)O)C(=O)N[C@@H](CCC(N)=O)C(=O)N3)NC2=O)C(=O)N[C@@H]([C@@H](C)CC)C(=O)N2CCC[C@H]2C(=O)NCC(=O)N[C@@H](CC(=O)O)C(=O)N2CCC[C@H]2C(=O)N[C@@H](Cc2ccc(O)cc2)C(=O)NCC(=O)N[C@@H]([C@@H](C)CC)C(=O)N1)[C@@H](C)CC)C(=O)O — viability (MCF-10A; MTT; up to 50 µM, 48 h): not toxic
Cc1cc(O)c2c(C(=O)[O-])[n+]3n(c2c1)CCCC3 — viability (HepG2; cell growth or viability, CCK-8; 10 µM, 24 h): 99.3%
CC(C)C1=CC2=CC[C@@H]3[C@](C)(CCC[C@@]3(C)C(=O)OCC#CCN3CCOCC3)[C@H]2CC1 — viability (BHK-21-hACE2; 20.0 µM, 48 (unit not given)): 121%
COc1cc(-c2oc3cc(OC)c(OC)c(O)c3c(=O)c2OC)ccc1O — viability (RBL-2H3; cell growth or viability, MTT; 100 µM): > 90%
CCCCCCCCCCCCCCCC(=O)N[C@@H](CCCCN)C(=O)N1CCC[C@H]1C(=O)N[C@H](C(N)=O)C(C)C — viability (murine cells; MTT; 20 µM, 2 h, medium without FBS; relative to: untreated): ≥ 85.5%
CCN(CC)CC#CCOC(=O)[C@]1(C)CCC[C@@]2(C)[C@H]1CC=C1C=C(C(C)C)CC[C@@H]12 — viability (BHK-21-hACE2; 20.0 µM, 48 (unit not given)): 101%
CC(C)[C@H](NC(=O)[C@@H](NC(=O)[C@H](CCCNC(=N)N)NC(=O)[C@H](CCCNC(=N)N)NC(=O)[C@H](CCCNC(=N)N)NC(=O)[C@H](CCC(N)=O)NC(=O)[C@H](CCCNC(=N)N)NC(=O)[C@H](CCCNC(=N)N)NC(=O)[C@H](CCCCN)NC(=O)[C@H](CCCCN)NC(=O)[C@H](CCCNC(=N)N)NC(=O)CN)[C@@H](C)O)C(=O)N[C@H](C(=O)N[C@@H](CO)C(=O)N1CCC[C@H]1C(=O)O)[C@@H](C)O — viability (BEAS-2B; MTT; concentration not given, 30 min, outcome no effect, with: Der f 2): no effect
CC(C)C1=C[C@@]23CC[C@@H]4[C@](C)(CCC[C@@]4(C)C(=O)OCC#CCN4CCCC4)[C@H]2C[C@@H]1[C@H]1C(=O)OC(=O)[C@H]13 — viability (BHK-21-hACE2; 20.0 µM, 48 (unit not given)): < 50%
CC(C)C[C@H](NC(=O)[C@H](CC(N)=O)NC(=O)[C@H](CCCNC(=N)N)NC(=O)[C@@H](N)CS)C(=O)O — viability (B16-F1; MTT; 50 to 200 µM, 48 h): not toxic
CC1=C2[C@@H](O)[C@H](C(=O)O)CC[C@@]2(C)CCC1=O — viability (RBL-2H3; cell growth or viability, MTT; 100 µM): > 90%
COC(=O)c1c(C)[nH]c2c3c(c(O)c(CN4CCOCC4)c12)[C@H]1C[C@@H]2[C@@]4(C)CCC[C@@](C)(C(=O)OC)[C@@H]4CC[C@@]32C=C1C(C)C — viability (BHK-21-hACE2; 20.0 µM, 48 (unit not given)): 116%

Excerpt of the above:
CC(C)C1=C[C@@]23CC[C@@H]4[C@](C)(CCC[C@@]4(C)C(=O)NCC#CCN4CCCNCC4)[C@H]2C[C@@H]1[C@H]1C(=O)OC(=O)[C@H]13 — viability (BHK-21-hACE2; 20.0 µM, 48 (unit not given)): 113%
CC[C@H](C)[C@H](NC(=O)[C@@H](NC(=O)[C@H](Cc1ccc(O)cc1)NC(=O)[C@@H]1CSSC[C@@H]2NC(=O)[C@@H]3CCCN3C(=O)[C@H](CC(N)=O)NC(=O)[C@H](Cc3ccccc3)NC(=O)[C@H](CCC(=O)O)NC(=O)[C@H](C(C)C)NC(=O)[C@H](CC(=O)O)NC(=O)[C@@H]3CSSC[C@H](NC(=O)[C@H]([C@@H](C)O)NC(=O)[C@H](CC(C)C)NC(=O)[C@@H]4CCCN4C(=O)[C@@H]4CCCN4C(=O)[C@H](CSSC[C@H](N)C(=O)N4CCC[C@H]4C(=O)NCC(=O)N[C@@H](CCC(=O)O)C(=O)NCC(=O)N[C@@H](CCC(=O)O)C(=O)N[C@@H](CCC(N)=O)C(=O)N3)NC2=O)C(=O)N[C@@H]([C@@H](C)CC)C(=O)N2CCC[C@H]2C(=O)NCC(=O)N[C@@H](CC(=O)O)C(=O)N2CCC[C@H]2C(=O)N[C@@H](Cc2ccc(O)cc2)C(=O)NCC(=O)N[C@@H]([C@@H](C)CC)C(=O)N1)[C@@H](C)CC)C(=O)O — viability (MCF-10A; MTT; up to 50 µM, 48 h): not toxic
